Measurements from different studies.
Lines come from different studies, so protocols differ. ± marks the error that the study gave.
fimH lectin domain: Type 1 fimbrin D-mannose specific adhesin, lectin domain (fimH, Escherichia coli K-12, UniProt P08191)
Chain of UniProt Q92547 (whole entry, unmodified, looked up): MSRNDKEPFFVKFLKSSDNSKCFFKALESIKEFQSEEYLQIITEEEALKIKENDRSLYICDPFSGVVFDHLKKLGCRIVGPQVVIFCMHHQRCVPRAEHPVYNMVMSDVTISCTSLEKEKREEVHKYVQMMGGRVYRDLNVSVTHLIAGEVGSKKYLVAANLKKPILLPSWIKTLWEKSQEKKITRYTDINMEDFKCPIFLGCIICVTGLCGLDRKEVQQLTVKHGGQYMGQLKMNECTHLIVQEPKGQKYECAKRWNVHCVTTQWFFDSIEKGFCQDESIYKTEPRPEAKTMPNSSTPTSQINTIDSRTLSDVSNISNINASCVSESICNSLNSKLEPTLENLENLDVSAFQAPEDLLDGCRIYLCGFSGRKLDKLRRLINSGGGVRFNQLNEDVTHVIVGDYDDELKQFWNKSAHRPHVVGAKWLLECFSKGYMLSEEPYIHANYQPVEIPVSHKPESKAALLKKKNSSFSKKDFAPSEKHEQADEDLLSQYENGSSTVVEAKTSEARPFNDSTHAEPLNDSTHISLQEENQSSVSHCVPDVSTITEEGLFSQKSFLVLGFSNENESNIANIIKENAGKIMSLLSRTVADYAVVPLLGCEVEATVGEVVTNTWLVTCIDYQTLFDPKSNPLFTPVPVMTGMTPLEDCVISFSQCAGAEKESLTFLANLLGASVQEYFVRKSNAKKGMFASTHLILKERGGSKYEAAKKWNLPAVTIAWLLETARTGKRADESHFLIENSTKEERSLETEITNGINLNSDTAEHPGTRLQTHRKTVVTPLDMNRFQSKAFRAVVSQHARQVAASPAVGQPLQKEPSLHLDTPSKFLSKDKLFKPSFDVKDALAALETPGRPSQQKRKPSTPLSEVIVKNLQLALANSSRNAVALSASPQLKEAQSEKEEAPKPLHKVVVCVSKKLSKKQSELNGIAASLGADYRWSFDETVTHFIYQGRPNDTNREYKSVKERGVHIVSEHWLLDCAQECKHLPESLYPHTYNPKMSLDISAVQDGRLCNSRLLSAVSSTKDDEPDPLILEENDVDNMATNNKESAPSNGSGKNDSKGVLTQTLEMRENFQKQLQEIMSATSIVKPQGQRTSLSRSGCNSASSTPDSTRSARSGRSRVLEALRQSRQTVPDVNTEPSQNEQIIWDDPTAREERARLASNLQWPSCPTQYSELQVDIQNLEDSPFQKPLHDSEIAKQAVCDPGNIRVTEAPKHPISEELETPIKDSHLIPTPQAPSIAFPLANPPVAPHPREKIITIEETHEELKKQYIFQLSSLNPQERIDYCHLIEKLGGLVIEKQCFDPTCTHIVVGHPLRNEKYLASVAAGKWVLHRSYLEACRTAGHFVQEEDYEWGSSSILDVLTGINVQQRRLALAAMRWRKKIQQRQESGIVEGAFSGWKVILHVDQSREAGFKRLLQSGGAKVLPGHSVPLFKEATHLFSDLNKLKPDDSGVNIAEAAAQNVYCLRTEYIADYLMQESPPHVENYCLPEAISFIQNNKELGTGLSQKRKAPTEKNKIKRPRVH
Chain of UniProt P08191 (whole entry, looked up): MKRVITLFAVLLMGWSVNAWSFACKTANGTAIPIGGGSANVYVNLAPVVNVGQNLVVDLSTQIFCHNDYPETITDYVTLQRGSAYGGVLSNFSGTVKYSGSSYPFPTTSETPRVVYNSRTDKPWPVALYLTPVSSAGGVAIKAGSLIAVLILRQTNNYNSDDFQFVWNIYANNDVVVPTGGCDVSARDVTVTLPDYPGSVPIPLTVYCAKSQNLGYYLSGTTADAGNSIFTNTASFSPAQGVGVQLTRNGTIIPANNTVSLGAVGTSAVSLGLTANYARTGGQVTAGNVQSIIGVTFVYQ
Chain of UniProt P14060 (whole entry, looked up): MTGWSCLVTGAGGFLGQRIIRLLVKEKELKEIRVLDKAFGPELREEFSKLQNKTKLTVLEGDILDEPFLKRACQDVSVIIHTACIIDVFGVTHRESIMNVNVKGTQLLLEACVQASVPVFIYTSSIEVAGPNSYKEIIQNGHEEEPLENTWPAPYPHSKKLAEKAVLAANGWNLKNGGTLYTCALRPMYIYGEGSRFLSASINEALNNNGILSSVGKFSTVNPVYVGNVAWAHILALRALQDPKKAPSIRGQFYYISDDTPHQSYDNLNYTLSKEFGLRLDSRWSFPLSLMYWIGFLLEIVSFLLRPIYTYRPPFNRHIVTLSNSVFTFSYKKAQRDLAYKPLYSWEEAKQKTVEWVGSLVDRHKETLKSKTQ
Chain of UniProt P06702 (whole entry, looked up): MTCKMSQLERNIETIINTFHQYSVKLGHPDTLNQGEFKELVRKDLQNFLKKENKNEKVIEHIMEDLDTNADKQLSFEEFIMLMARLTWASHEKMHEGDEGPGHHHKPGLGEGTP
Chain of UniProt P08238 (whole entry, looked up): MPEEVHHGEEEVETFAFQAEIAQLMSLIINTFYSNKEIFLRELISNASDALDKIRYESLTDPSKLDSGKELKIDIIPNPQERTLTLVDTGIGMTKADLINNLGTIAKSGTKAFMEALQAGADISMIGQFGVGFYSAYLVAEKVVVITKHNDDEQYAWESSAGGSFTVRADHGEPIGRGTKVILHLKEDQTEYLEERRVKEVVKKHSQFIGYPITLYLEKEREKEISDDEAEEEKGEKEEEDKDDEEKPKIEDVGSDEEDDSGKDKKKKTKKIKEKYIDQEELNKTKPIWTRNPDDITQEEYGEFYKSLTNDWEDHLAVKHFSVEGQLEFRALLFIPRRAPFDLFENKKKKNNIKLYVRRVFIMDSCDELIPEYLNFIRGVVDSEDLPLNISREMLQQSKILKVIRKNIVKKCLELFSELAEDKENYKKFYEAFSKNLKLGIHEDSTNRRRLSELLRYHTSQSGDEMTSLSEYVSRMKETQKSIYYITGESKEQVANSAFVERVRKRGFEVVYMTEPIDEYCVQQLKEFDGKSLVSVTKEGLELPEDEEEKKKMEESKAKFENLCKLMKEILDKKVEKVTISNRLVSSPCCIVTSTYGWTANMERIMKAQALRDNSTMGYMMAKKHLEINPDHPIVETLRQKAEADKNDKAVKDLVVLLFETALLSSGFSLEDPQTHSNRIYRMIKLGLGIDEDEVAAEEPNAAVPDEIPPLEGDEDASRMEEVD
Chain of UniProt P09874 (whole entry, looked up): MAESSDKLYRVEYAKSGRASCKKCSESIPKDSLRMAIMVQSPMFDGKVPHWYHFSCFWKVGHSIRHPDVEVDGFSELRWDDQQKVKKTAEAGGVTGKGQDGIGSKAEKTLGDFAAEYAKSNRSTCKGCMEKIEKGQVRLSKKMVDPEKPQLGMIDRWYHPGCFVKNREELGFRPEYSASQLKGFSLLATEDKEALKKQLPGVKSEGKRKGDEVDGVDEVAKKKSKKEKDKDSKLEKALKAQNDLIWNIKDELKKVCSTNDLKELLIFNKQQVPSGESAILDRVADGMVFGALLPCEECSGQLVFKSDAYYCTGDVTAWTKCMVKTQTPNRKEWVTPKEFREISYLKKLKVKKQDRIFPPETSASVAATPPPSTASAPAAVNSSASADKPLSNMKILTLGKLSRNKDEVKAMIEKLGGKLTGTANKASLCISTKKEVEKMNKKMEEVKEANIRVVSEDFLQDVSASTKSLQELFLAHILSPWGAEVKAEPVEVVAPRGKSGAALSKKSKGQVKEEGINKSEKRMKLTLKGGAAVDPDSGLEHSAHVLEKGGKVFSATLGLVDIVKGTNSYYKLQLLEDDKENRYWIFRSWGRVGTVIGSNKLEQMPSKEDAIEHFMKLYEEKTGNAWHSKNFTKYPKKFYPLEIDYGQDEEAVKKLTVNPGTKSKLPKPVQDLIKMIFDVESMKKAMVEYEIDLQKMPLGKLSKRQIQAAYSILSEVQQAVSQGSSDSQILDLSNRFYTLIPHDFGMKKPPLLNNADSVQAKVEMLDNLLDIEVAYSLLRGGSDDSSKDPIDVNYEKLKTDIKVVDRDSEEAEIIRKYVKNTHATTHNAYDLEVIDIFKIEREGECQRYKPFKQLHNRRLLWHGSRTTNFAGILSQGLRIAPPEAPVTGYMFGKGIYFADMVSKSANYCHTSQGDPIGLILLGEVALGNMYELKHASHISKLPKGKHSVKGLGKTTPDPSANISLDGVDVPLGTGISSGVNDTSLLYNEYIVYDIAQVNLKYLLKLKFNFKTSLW
Chain of UniProt O60563 (whole entry, looked up): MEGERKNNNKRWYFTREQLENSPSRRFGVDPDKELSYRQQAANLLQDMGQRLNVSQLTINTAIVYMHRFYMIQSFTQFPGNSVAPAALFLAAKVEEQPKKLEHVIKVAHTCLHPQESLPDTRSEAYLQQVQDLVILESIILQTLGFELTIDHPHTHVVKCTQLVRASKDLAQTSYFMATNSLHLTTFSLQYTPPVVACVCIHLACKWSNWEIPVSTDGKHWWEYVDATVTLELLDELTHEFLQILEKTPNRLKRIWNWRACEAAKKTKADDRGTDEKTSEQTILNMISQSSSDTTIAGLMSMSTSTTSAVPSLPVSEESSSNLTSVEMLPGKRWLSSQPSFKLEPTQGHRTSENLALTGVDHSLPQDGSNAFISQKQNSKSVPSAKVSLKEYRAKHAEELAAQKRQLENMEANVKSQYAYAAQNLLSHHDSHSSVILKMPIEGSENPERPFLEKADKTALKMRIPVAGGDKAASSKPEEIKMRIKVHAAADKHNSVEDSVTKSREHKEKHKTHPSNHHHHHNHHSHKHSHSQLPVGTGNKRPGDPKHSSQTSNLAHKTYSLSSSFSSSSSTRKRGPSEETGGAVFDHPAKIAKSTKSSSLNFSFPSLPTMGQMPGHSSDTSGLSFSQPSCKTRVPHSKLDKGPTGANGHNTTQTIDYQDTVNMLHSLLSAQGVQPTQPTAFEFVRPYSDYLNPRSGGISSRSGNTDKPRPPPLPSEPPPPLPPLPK
Chain of UniProt P62942 (whole entry, looked up): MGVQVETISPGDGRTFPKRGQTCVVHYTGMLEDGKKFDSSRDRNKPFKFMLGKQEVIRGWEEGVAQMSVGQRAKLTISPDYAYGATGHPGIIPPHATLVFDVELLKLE

Molecule	target	test	test system	setting	Kd [µM]
NCCCC[C@H](NC(=O)[C@H](C/C=C\C[C@H](NC(=O)[C@@H]1CCCN1)C(=O)N[C@@H](CCCCN)C(=O)NCCCN)NC(=O)[C@@H]1CCCN1)C(=O)NCCCN	(CUG)10 RNA	SPR	–	–	0.263
C=CC(=O)N1C[C@H](C)N(c2nc(OC[C@@]34CCCN3C[C@H](F)C4)nc3c(F)c(-c4ccc(F)c5sc(N)c(C#N)c45)c(C(F)(F)F)cc23)C[C@H]1C	GTPase KRas, GppNHp-bound (KRAS, Homo sapiens, UniProt P01116)	microscale thermophoresis	–	–	14 ± 8.1
CCc1nc2cc3ccccc3cc2cc1C(=O)N[C@@H](CCCCN)C(=O)N[C@@H](C/C=C/C[C@H](NC(=O)[C@H](CCCCN)NC(=O)c1cc2cc3ccccc3cc2nc1CC)C(=O)N1CCC[C@H]1C(=O)NCCCN)C(=O)N1CCC[C@H]1C(=O)NCCCN	(CUG)10 RNA	SPR	–	–	0.123
Cc1c2ccnc(C(=O)N[C@H](C)CN(C)C)c2cc2c3cc(OCCCN4CCN(C)CC4)ccc3n(C)c12	r(GGC)16 RNA	binding, microscale thermophoresis	–	–	0.912 ± 0.328
COC(=O)CCCNC(=O)c1cc(S(N)(=O)=O)c(Cl)cc1NC1CCCCC1	CA14 (Homo sapiens, UniProt Q9ULX7)	–	–	pH 7	0.05
CCCc1cc2cc(-n3nc(C(F)F)c4c3CC3(CCC3)CC4=O)cc(N3CCC(O)CC3)c2c(=O)[nH]1	HSP90AB1 (Homo sapiens, UniProt P08238)	fluorescence polarization	–	24 h, 4 °C, together with: FITC-geldanamycin tracer	1.86
CCCC[C@@H]1NC(=O)[C@H](Cc2ccc(O)cc2)NC(=O)[C@@H]2CCCN2C(=O)[C@H](CC(=O)O)NC(=O)[C@H](C)NC(=O)[C@H](Cc2ccccc2)NC(=O)[C@@H]2CSCCC(=O)N3CN(CN(C3)C(=O)CCSC[C@@H](C(=O)N[C@@H](C)C(N)=O)NC1=O)C(=O)CCSC[C@H](NC(C)=O)C(=O)N[C@@H](CC(C)(C)C)C(=O)N1CCC[C@H]1C(=O)N[C@@H](CCC(=O)O)C(=O)N[C@H](CCCCNC(=O)CCc1cn(CCOCCOCCOCCN(CCOCCOCCOCCC(=O)N[C@H]3CSCCC(=O)N4CN5CN(C4)C(=O)CCSC[C@H](NC(=O)[C@@H](CC(=O)O)NC(=O)[C@H](Cc4cccc6ccccc46)NC(=O)[C@@H]4CCCN4C3=O)C(=O)N[C@@H](CCSC)C(=O)N[C@@H](CCCCNC(=N)N)C(=O)N[C@@H](CC(=O)O)C(=O)N[C@@H](Cc3c[nH]c4ccccc34)C(=O)N[C@@H](CO)C(=O)N[C@@H]([C@@H](C)O)C(=O)N3CCC[C@H]3C(=O)N3C[C@H](O)C[C@H]3C(=O)N[C@@H](Cc3c[nH]c4ccccc34)C(=O)N[C@H](C(N)=O)CSCCC5=O)CCOCCOCCOCCn3cc(CCC(=O)NCCCC[C@H]4NC(=O)[C@H](CCC(=O)O)NC(=O)[C@@H]5CCCN5C(=O)[C@H](CC(C)(C)C)NC(=O)[C@@H](NC(C)=O)CSCCC(=O)N5CN6CN(C5)C(=O)CCSC[C@H](NC(=O)[C@H](Cc5ccc(O)cc5)NC(=O)[C@@H]5CCCN5C4=O)C(=O)N[C@@H](Cc4ccccc4)C(=O)N[C@@H](C)C(=O)N[C@@H](CC(=O)O)C(=O)N4CCC[C@H]4C(=O)N[C@@H](Cc4ccc(O)cc4)C(=O)N[C@@H](CCCC)C(=O)N[C@H](C(=O)N[C@@H](C)C(N)=O)CSCCC6=O)nn3)nn1)C(=O)N1CCC[C@H]1C(=O)N[C@@H](Cc1ccc(O)cc1)C(=O)N2	Nectin-2 (NECTIN2, Homo sapiens, UniProt Q92692)	SPR	–	–	> 0.2
O=C(O)CCC(=O)c1cccc(NS(=O)(=O)c2c[nH]c3ncccc23)c1	Ubiquitin carboxyl-terminal hydrolase 13, ZnF-UBD domain (USP13, Homo sapiens, UniProt Q92995)	–	–	–	> 1000
Cc1c[nH]c2nccc(-c3ccc(C(=O)N[C@@H]4c5c(F)cc(C(F)F)cc5C[C@@H]4O)cn3)c12	Ribosomal protein S6 kinase alpha-4, C-terminal kinase domain (RPS6KA4, Homo sapiens, UniProt O75676)	binding, competition with immobilised ligand	–	–	3
CCC1(CC)CC(=O)N(C2c3cc(C(=O)NC4c5ccccc5CC4O)ccc3OC2(C)COC)C(=N)N1 (stereo not shown)	Plasmepsin IX (Plasmodium falciparum, UniProt Q8ILG2)	binding, SPR	–	–	> 1e-05
Cc1ccc(C(=NO)c2oc3ccc4c(C)cc(=O)oc4c3c2-c2ccccc2)cc1	Protein S100-A9 (S100A9, Homo sapiens, UniProt P06702)	binding, SPR	–	–	9.6
BODIPY-GTP	GMP reductase (guaB1, Mycolicibacterium smegmatis, UniProt A0QYE8)	fluorescence anisotropy	–	pH 6.6, 25 °C, without GMP	0.45 ± 0.04
Cn1ncc2cc(-c3cncc(Cl)c3N3CCC4(CCNC4=O)CC3)ccc21	Cyclin-T1 (CCNT1, Homo sapiens, UniProt O60563)	SILAC displacement	LS174T-L5 cell lysate	–	10.8
CC(C)(C)n1cc(CN(Cc2cn(CC(=O)O)nn2)Cc2cn(C(C)(C)C)nn2)nn1	copper(I)	bicinchoninic acid competition	–	–	0.000121 ± 1.68e-05
C=C[C@H]1CN([C@@H](C)c2cn(CCCNC(=O)CCc3ccc4n3[B-](F)(F)[N+]3=C(c5ccc[nH]5)C=CC3=C4)nn2)C(=O)[C@@H]2CCC[C@H]1N2S(=O)(=O)c1cc(Cl)cc(Cl)c1	FKBP1A (Homo sapiens, UniProt P62942)	binding, FP	–	–	0.006
CCCCCCCO[C@H]1O[C@H](CO)[C@@H](O)[C@H](O)[C@@H]1O	fimH lectin domain	binding, isothermal titration calorimetry	–	25 °C, individual titrations	0.0291
O=C(O)CC12CC3CC(CC(C3)C1)C2	DNA topoisomerase 2-binding protein 1, BRCT7-8 domains; R1407A (TOPBP1, Homo sapiens, UniProt Q92547, R1407A)	NMR titration	–	not saturated	> 400
CCCCCCCO[C@H]1CO[C@H](CO)[C@@H](O)[C@H](O)[C@@H]1O	fimH lectin domain	binding, isothermal titration calorimetry	–	25 °C, global fit, two runs	0.264
CCc1nc2cc3ccccc3cc2cc1C(=O)N1CCC[C@H]1C(=O)N[C@@H](C/C=C\C[C@H](NC(=O)[C@@H]1CCCN1C(=O)c1cc2cc3ccccc3cc2nc1CC)C(=O)N[C@@H](CCCCN)C(=O)NCCCN)C(=O)N[C@@H](CCCCN)C(=O)NCCCN	(CUG)10 RNA	SPR	–	–	0.038
CN(C)c1ccc(/C=C/c2cc(/C=C3\Sc4ccccc4N3CCCN3CCCC3)c3ccccc3[n+]2C)cc1	Pu22 DNA	isothermal titration calorimetry	–	pH 7.4, 25 °C, 2% DMSO	13
NNc1ccc(C(=O)N2CCN(C(=O)c3cc(Cc4n[nH]c(=O)c5ccccc45)ccc3F)CC2)cn1	PARP1 (Homo sapiens, UniProt P09874)	binding, SPR	–	–	0.0838
NS(=O)(=O)c1cc(C(=O)NCCCC(=O)O)c(NC2CCCCC2)cc1Cl	CA3 (Homo sapiens, UniProt P07451)	–	–	pH 7	> 200
CCc1nc2cc3ccccc3cc2cc1C(=O)N1CCC[C@H]1C(=O)N[C@@H](CCC/C=C\CCC[C@H](NC(=O)[C@@H]1CCCN1C(=O)c1cc2cc3ccccc3cc2nc1CC)C(=O)N[C@@H](CCCCN)C(=O)NCCCN)C(=O)N[C@@H](CCCCN)C(=O)NCCCN	(CUG)10 RNA	SPR	–	–	0.0844
O=c1c(-c2ccc(Cl)c(CN3CCOCC3)c2)coc2cc(O)ccc12	HSD3B1 (Homo sapiens, UniProt P14060)	binding, SPR	–	–	1.32
CC(C(=O)O)c1ccc2c(c1)CC(=O)c1ccccc1S2 (stereo not shown)	TOPBP1 (Homo sapiens, UniProt Q92547)	binding, NMR	–	–	120

Excerpt of the above:
Molecule	target	test	test system	setting	Kd [µM]
CCc1nc2cc3ccccc3cc2cc1C(=O)N1CCC[C@H]1C(=O)N[C@@H](C/C=C\C[C@H](NC(=O)[C@@H]1CCCN1C(=O)c1cc2cc3ccccc3cc2nc1CC)C(=O)N[C@@H](CCCCN)C(=O)NCCCN)C(=O)N[C@@H](CCCCN)C(=O)NCCCN	(CUG)10 RNA	SPR	–	–	0.038
Cc1c2ccnc(C(=O)N[C@H](C)CN(C)C)c2cc2c3cc(OCCCN4CCN(C)CC4)ccc3n(C)c12	r(GGC)16 RNA	binding, microscale thermophoresis	–	–	0.912 ± 0.328
Cn1ncc2cc(-c3cncc(Cl)c3N3CCC4(CCNC4=O)CC3)ccc21	Cyclin-T1 (CCNT1, Homo sapiens, UniProt O60563)	SILAC displacement	LS174T-L5 cell lysate	–	10.8
CCCCCCCO[C@H]1O[C@H](CO)[C@@H](O)[C@H](O)[C@@H]1O	fimH lectin domain	binding, isothermal titration calorimetry	–	25 °C, individual titrations	0.0291
